Experimental data of several laboratories.
Each numbered part is a random draw from the data of one study; scales do not carry over between parts.

Block 1
Target: Interferon regulatory factor 7, full length, phosphomimetic (IRF7, Homo sapiens, UniProt Q92985, residues 1-503, S471D/S472D/S475D/S476D/S477D/S483D/S484D/S487D)
Method: protein-binding microarray
Molecule type: double-stranded DNA, one strand shown
Matrix: in vitro
Concentration: 2200 nM top
Setting: 60-bp whole probe
Added: salmon DNA 0.4 mg/ml
Relative to: random background probes
Reading: higher = stronger binding
All sequences stand within: GCCTAGCAC … GTCTTGATTCGCTTGACGCTGCTG
Residues (chain): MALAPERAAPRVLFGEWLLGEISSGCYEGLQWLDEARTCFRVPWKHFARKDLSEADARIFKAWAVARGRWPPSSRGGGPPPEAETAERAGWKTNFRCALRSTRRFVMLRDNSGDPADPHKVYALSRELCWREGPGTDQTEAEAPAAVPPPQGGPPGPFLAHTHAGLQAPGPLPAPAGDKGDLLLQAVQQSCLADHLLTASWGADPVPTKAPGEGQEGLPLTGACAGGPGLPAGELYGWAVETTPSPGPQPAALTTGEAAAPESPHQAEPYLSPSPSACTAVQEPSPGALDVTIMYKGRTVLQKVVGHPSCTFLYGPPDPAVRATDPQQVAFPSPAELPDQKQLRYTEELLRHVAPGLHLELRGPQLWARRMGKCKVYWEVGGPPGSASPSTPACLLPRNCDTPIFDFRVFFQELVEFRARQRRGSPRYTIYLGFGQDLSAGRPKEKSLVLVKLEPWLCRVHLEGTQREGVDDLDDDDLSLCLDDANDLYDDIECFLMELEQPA
Oligonucleotide	fitted relative affinity
GACGATCTCAGTCTAGAGACGTGCTAG	-0.139 z-score
TTAGGTATCCTTTTACTTTAGTGCTAG	0.95 z-score
GGGACTTTGAATTAGAAAGAGTGCTAG	-0.958 z-score
GACGGTTTTGGGACTGGGGACGTGCTA	0.574 z-score
ATATATATGAATATATATTAGTGCTAG	0.142 z-score
TCATAGGTTTCACTTTCCACTGTGCTA	6.37 z-score
CAGAAGTTCATGTTCAACCAGTGCTAG	0.335 z-score
CTTGCTTTATGTGTAGGTCTGTGCTAG	1.06 z-score
TTATATCTGTGTTATTAAATTGTGCTA	0.668 z-score
GACGATTTCGACACTGGGGACGTGCTA	1.11 z-score
TTAGCTTTCCTACTGCTTTAGTGCTAG	1.87 z-score
TCAGCTCTGGCACCTCTAACTGTGCTA	-0.249 z-score
TTAGGACTGGGTATCGGTTGGTGCTAG	-0.145 z-score
TCAATCTTCACTCTTAATTAGTGCTAG	0.616 z-score
GACGGTCTCGGTCTTGGGACGTGCTAG	0.0361 z-score
TTAGGACTGCTTATCCTTTAGTGCTAG	0.212 z-score
TCACGTCTGAGCTCCGTACTGTGCTAG	0.976 z-score
TTAGGTCTAGGTTTCGGTTAGTGCTAG	4.98 z-score
GACGAACTGGGGACAGGAGACGTGCTA	-0.387 z-score
ATAGGTTTCGACTATCGGTTAGTGCTA	3.7 z-score
TCAAAATTTTTTTTCTAACTGTGCTAG	-0.36 z-score

Block 2
Target: RING finger protein unkempt homolog, zinc fingers 1-6, GST-SBP tag (UNK, Homo sapiens, UniProt Q9C0B0, residues 30-357)
UniProt Q9C0B0, sequence (30-357, looked up): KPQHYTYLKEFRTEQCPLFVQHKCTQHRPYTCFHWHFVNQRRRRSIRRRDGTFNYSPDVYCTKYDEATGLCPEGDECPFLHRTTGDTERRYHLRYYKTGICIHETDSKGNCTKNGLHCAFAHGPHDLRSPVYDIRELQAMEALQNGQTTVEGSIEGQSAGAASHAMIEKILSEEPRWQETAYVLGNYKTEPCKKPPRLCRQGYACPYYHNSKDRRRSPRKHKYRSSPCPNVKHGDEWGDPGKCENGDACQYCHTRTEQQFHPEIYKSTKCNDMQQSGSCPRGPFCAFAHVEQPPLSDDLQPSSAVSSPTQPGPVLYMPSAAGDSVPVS
Method: RNA Bind-n-Seq
Molecule type: RNA
Matrix: in vitro
Concentration: not given
Setting: RNA with constant flanks, human-mouse chimeric sites, ends assumed
Relative to: input RNA pool
Reading: higher = stronger binding
Oligonucleotide	bound/input enrichment
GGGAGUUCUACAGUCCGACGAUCGCAAAGGAUGAUGAGGCAGCUGCAGUUGCCCUUUCCUCUCUCGUUCAUGCUUUGGAUGAGUUAAACAUGGUCGCCAUCGUCCGAUAUGCUUAUGACAAAAGAGCUAAUCCUCAAGUUGGUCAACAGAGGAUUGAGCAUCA	0.149 ratio
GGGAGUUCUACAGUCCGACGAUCUACUGCUGCUUUCAACUUAAAUCACUGAGGCAUCUCUACUAUUCUGUGAGCAUCAGGACUGUAGCGCUGUGUCACCACAUGAGAGUUCAGAAGCAGCCUUUCUGUGGAGGGUGGGAAUGACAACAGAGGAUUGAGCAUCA	0.11 ratio
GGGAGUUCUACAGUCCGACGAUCAACAGAUUGUCUUUAAGCAUUCCAAGCGAGAAUGCUGGGGUGAUCAUUGUUGCCCAUGUGCCUUCUGACUGAGCUUUAAUGCUGUUCAUCCUUGAUGUGAUGUUCUUCUCCAGAAUUGUUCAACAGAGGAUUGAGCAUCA	0.159 ratio
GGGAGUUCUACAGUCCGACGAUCGAGCGUCUUGCCCGCACUGGGAUCAUCGUGACCACUAGUGAGGCUGUUCUGCUUCAGCUGGUGGCUGACAAAGACCACCCGAAGUUCAAGGAAAUUCAGAAUCUAAUUAAGGCGAGUGCCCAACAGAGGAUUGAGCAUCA	0.0721 ratio
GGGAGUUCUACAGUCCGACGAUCAGAAUCUUGGGACUGUUUUACUUAAUUGGUCAUUGAUAGCUUAACAAGCAUGGAGAUAAGAUUAGAAAUCUUGACAUCAACAGGUAUUAAGCAGAAAAAACCAUGGCCACGUGUCUCCUGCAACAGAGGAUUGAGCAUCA	0.102 ratio
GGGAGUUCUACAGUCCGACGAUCUGACAAGGGCACUGCAGAGCCAUGCCUUUCCUUGACAUACAGAAAAAGCUGGGCAUCAACAUAGAUCGGCACUUUAUGUUCCUAAGCGCAGAACAGCCCUACAAGAUCGCCGCUCGGUGCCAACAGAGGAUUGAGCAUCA	0.0761 ratio
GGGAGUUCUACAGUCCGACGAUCCGCUGGCCCAAGCUGAUGGACUCUGAUGGCCUCCAUCUCUCAGGCACGUGUGCCUUCUCUUAGUCCCUGUUUUCGGGAUGUUAUGAACAGUAUCAUGGUUUGACAGAAGCACCAGCUUUGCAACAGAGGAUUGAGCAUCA	0.136 ratio
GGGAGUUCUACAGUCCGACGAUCGUAUUUGUGCGCUCCCCACUCGUGUUUUUAAGUGUAUAAGAUGUAUAUACAUGUAUUUACAAUUGAGCUUUUGUUACAUAAUGCUGAAAUGCUACUGGAGAUUAUGAAAAAUGUUUCAAUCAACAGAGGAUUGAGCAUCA	0.152 ratio
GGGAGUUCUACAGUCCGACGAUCCGGAAGUUCUUGAUUUAUCAUUUUUCUCUUUUCUUUCUUUCCUUUAGGAAAAGCCUAAAGAUUAGACUGUAAGAAAAACAGAAGCCAUGUUUCGAAGACCUGUGUUACAGGUAUUUCGUCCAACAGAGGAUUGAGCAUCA	0.173 ratio
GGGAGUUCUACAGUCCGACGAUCGCAAAGGAUGAUGAGGCAGCUGCAGUUGCCCUUUCCUCUCUCGUUCAUGCUUUGGAUGAGUUAAACAUGGUCGCCAUAGUUCGAUAUGCUUAUGACAAAAGAUCUAAUCCUCAAGUUGGUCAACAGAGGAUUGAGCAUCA	0.611 ratio
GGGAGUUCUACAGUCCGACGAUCCUCAGAGAUGUGGCAUAUCAGUAUGUGAAAAAGGGGGCUCGUAUAUUUUUGGAAGGGAAAGUGGACUAUGGUGAAUACAUGGAUAAAAACAAUGUGAGGCGGCAAGCAACAACAAUCAUACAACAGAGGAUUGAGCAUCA	0.423 ratio

Block 3
Target: RNA binding protein fox-1 homolog 2, RRM domain, GST-SBP tag (RBFOX2, Homo sapiens, UniProt O43251-10, residues 100-194)
Method: RNA Bind-n-Seq
Molecule type: RNA
Matrix: in vitro
Concentration: 365 nM
Setting: natural RNA segment, single round, ends assumed
Relative to: no-protein control
Reading: higher = stronger binding
Oligonucleotide	RBNS enrichment (R)
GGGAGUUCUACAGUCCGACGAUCAGAAAGUUCUAGAAAAUAGGAAAACGAAAAAUUUCAUUGAGAUGAGUAGUGCAUUUAAUUAUUUUUUAAAAAACUUUUUAAGUACUUGAAUUUUAUAUCAGGAAAACAAAUGGAAUUCUCGGGUGCCAA	0.718
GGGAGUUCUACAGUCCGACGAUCCUAUCUCUUUGUCACUUGCUGGUACAGCUAGUUUGUUUCACUUGCACAUUUGUACAUAUAUCUAAUGUUUUCAAGUGCCUUACUUGUUUAAACUCUGACUUCAAAGGUUUUGGAAUUCUCGGGUGCCAA	0.389
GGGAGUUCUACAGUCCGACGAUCCUCAACCCACCAUGCUCAUCAUUCUGUCUCAUCCAUCCAUCCAUCCAUCCAUUCAUCGCCAUGUGUCCGCAAGACUGUCUCCAUGACCCUGAAAAAGGACUCUCGAGAUGUGGAAUUCUCGGGUGCCAA	0.686
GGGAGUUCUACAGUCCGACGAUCACUAGUAUGUGUGCGUGAGCUGGUCAGUUGCCAAAGGAGGAAAUAAGGUUAGAAGCCUGAACCGUUACAAAAGAAGAGCUCACUAUGGUCAAAAAGUGAUGGCUUUCAGGUGGAAUUCUCGGGUGCCAA	1.22
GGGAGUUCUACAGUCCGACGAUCUGUAUGCAGACACAUGAGCUGUGGGGUAACAAUCAAAACGUAAUCUUUCAUAGAUAGCCAUUACAUUUCUUUAAAUUUUUCAAUGCCGAUGUGUAUUCUAUAAGAGAAUAUGGAAUUCUCGGGUGCCAA	0.764
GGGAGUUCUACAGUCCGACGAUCUUUACUUCACCUGAGGGAAUAGCCUCUCUACCUCGCAGAAAAUGUACCCUACCCCUCAAAUAUUGCCUUGGUUUGGUUUGGUUUGGUUUGGUUUGGGUUUGUUUUUGCCUUGGAAUUCUCGGGUGCCAA	0.633
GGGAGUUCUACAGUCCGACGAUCCAGGAAUUUUAUCAGGAUACUUAUGGGCAACAGUGGAAGUAGACAAGUAAGGGCUUGAAAAUGAUACUGGCAAGAUACGAUUGGCUCUAGAUCUACAUUCUUCAAAAAAAUGGAAUUCUCGGGUGCCAA	0.528
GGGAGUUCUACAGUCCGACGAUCGUUUUCUCUGUAAGAAAAUAUGGCCGUCACCCCCGCCCACCAAAAAAAAAUGAUUUGCUCUUUGUGAACACACAAUUAUGAAUUUCAUGGCGAUGUUAACAAUUCUGCAUUGGAAUUCUCGGGUGCCAA	0.502
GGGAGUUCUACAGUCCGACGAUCAAAAUAUUUUGGUCUAGCCACUAAACAUAAUGACUGAAAAAAAUUAUUAUUAUAAAUCACCAAUAUAAAUUUAUUGCCUACAAUUGUGGACUUAUCAUAUUUUUAUAUAUUGGAAUUCUCGGGUGCCAA	0.783

Block 4
Target: Sal-like protein 4, full length isoform B (SALL4, Homo sapiens, UniProt Q9UJQ4-2, residues 1-616)
Method: universal PBM
Molecule type: double-stranded DNA, one strand shown
Matrix: in vitro
Concentration: not given
Setting: 8-mer, flanks averaged, mean of replicates
Reading: higher = stronger binding
Construct (chain): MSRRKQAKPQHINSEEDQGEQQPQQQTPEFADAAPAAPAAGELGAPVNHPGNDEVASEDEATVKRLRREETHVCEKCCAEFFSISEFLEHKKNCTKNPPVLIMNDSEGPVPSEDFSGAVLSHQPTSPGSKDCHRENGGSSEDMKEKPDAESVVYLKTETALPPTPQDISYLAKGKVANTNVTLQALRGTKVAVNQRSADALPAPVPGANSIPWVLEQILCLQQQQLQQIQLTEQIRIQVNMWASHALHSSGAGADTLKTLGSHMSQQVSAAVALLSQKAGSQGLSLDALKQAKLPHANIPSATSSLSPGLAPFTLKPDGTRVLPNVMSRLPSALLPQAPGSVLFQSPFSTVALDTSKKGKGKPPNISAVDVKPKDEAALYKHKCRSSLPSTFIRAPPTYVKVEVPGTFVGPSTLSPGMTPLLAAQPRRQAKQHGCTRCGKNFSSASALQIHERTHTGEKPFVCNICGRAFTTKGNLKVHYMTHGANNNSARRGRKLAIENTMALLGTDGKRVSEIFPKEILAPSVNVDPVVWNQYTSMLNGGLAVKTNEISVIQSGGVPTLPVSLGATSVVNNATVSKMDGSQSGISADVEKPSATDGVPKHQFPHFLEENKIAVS
Oligonucleotide	E-score
TCTTGACA	0.115
GAAAATAA	0.347
ATTAACGC	0.164
ACGCATCG	0.0967
CCGGGTGA	-0.264
CTGATAGC	-0.0864
CTACATAA	0.149
CTGATCAA	-0.111
ATACGGCA	0.12
GTGGCATA	0.0566
TCTGGTCA	-0.0754
GCACCGGC	-0.361
AAGACTCT	0.0123
ACTCTATG	-0.108
CACCCAGG	-0.349
CCCCCGCG	-0.348
AACACCGA	-0.0626
CAATGGTC	0.00925
AACGGGAC	-0.292
CAGTGGGG	-0.361
CCACTGCG	-0.202
CCTCAGAC	-0.112
CCCACACA	-0.222
ACTTGACA	0.0867
CCCTCACC	-0.278

Excerpt of the above (block 2):
Oligonucleotide	bound/input enrichment
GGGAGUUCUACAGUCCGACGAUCAGAAUCUUGGGACUGUUUUACUUAAUUGGUCAUUGAUAGCUUAACAAGCAUGGAGAUAAGAUUAGAAAUCUUGACAUCAACAGGUAUUAAGCAGAAAAAACCAUGGCCACGUGUCUCCUGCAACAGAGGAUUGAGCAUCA	0.102 ratio
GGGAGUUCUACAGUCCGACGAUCGAGCGUCUUGCCCGCACUGGGAUCAUCGUGACCACUAGUGAGGCUGUUCUGCUUCAGCUGGUGGCUGACAAAGACCACCCGAAGUUCAAGGAAAUUCAGAAUCUAAUUAAGGCGAGUGCCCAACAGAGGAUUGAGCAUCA	0.0721 ratio
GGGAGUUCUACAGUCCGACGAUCGCAAAGGAUGAUGAGGCAGCUGCAGUUGCCCUUUCCUCUCUCGUUCAUGCUUUGGAUGAGUUAAACAUGGUCGCCAUAGUUCGAUAUGCUUAUGACAAAAGAUCUAAUCCUCAAGUUGGUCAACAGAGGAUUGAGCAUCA	0.611 ratio
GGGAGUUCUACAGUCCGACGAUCCGGAAGUUCUUGAUUUAUCAUUUUUCUCUUUUCUUUCUUUCCUUUAGGAAAAGCCUAAAGAUUAGACUGUAAGAAAAACAGAAGCCAUGUUUCGAAGACCUGUGUUACAGGUAUUUCGUCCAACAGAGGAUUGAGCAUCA	0.173 ratio
